Published values from different studies.
Each numbered part is a random draw from the data of one study; scales do not carry over between parts.

Study 1
Target: Ras GTPase-activating protein-binding protein 1, full length (G3BP1, Homo sapiens, UniProt Q13283)
Sequence of UniProt Q13283 (whole entry, looked up): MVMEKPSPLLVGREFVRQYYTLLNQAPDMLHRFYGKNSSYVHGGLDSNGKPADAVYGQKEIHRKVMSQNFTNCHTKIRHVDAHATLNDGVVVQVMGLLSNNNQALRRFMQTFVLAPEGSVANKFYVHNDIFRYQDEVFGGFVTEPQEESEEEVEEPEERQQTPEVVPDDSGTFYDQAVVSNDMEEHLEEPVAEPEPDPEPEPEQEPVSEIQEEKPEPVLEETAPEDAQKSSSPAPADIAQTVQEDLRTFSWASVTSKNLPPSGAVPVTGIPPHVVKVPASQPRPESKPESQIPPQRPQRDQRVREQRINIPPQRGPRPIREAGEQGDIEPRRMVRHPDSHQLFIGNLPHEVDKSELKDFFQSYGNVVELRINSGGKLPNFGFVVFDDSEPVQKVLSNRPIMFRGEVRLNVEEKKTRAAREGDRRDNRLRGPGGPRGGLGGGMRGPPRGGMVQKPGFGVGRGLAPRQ
Method: RNA Bind-n-Seq
Form: RNA
Medium: in vitro
Concentration: 200 nM
Setting: whole 134-nt RNA, ends assumed
With: 150 mM KCl
Reference: input library
Reading: higher = stronger binding
Constant ends, left off below: GGGAGUUCUACAGUCCGACGAUC … UGGAAUUCUCGGGUGUCAAGG
| Sequence | log2 enrichment |
| --- | --- |
| UCAAGUCCUGUGCUACACAUCGUAUGUACCGAAUCGGAGGAAAGGUUUUUUUGGAAAGUAUUAUGUUACGCCGUUCGGAUCUGCACUUCC | -0.946 |
| CACAGACAACACGCACCCACACAGACACAGAGGGAACGGGUUGGGAUGGGGACAGGGUGCACAGCAGGGCGGGGUAGGACCCCAGCCCCU | 1.97 |
| CUGUGCUACACAUCGUAUGUACCGAAUCGGGGAAAAAAAGGGGAAAAAGGGGAAAAAGGGGAAAGUAUUAUGUUACGCCGUUCGGAUCUG | -0.179 |
| CCUCAAGUCCUGUGCUACACAUCGUAUGUACCGAAUCGGGCGGGCGGGGCGGGAAAGUAUUAUGUUACGCCGUUCGGAUCUGCACUUCCA | 1.56 |
| AAGUCCUGUGCUACACAUCGUAUGUACCGAAUCGGGGAAAGGGGAAAGGGGAGGGGAAAGUAUUAUGUUACGCCGUUCGGAUCUGCACUU | 0.65 |
| UCAAGUCCUGUGCUACACAUCGUAUGUACCGAAUCGGGAAGGGGAAGGAAGGGGAAAGUAUUAUGUUACGCCGUUCGGAUCUGCACUUCC | 0.862 |
| UGGUGUUCAUAUUGCUGAUGUGAGCCAUUUUAUUAGGCCAGGAAAUGCCUUGGAUCAAGAAUCAGCCAGAAGAGGAACAACUGUGUAUCU | -0.349 |
| UGGGAGGUGGAUUUUGUUUAUUUUUUUAGCUCAUUUCCAGGGGUGGGAAUUUUUUUUUAAUAUGUGUCAUGAAUAAAGUUGUCUUUGAAA | 0.756 |
| UCCUCAAGUCCUGUGCUACACAUCGUAUGUACCGAAUCGGGAGGGGAGGAGGAAAGUAUUAUGUUACGCCGUUCGGAUCUGCACUUCCAG | 0.173 |
| UAACUUUAGAGUAGGAUCUGAUGGAUAUGGCAGUGGACGUGGAUUUGGGGAUGGCUAUAAUGGGUAUGGAGGAGGACCUGGAGGUGGCAA | 0.532 |
| ACCAUGCAGGUGGGCAUCUUUGGGAAGUGGGGCAAGGGGGGGAUAGGGAGGGGGGUAACACUUUGGCAACAGGUGGUCCCAGGUCGUUUC | 0.95 |
| GGACACAGCUUGGGCUAUGGCUUUGUGAACUACGUGACCGCGAAGGAUGCAGAGAGAGCGAUCAACACGCUGAACGGCUUGAGGCUCCAG | -1.78 |
| GCAGGAAGUAAAAACAAAUGGAAAUGCUUCGGAUAGUGGCAGAGGUGGGGGUUGCUAAGGAAAGGGUGGGAUGGGAGUGGGUAAAGAGUU | 1.05 |
| CUCAAGUCCUGUGCUACACAUCGUAUGUACCGAAUCGGAGGAAAAAGGUUUGGAAAGUAUUAUGUUACGCCGUUCGGAUCUGCACUUCCA | -0.654 |

Study 2
Target: RNA binding protein fox-1 homolog 2, RRM domain, GST-SBP tag (RBFOX2, Homo sapiens, UniProt O43251-10, residues 100-194)
Method: RNA Bind-n-Seq
Form: RNA
Medium: in vitro
Concentration: 365 nM
Setting: natural RNA segment, single round, ends assumed
Reference: no-protein control
Reading: higher = stronger binding
Constant ends, left off below: GGGAGUUCUACAGUCCGACGAUC … UGGAAUUCUCGGGUGCCAA
Construct (chain): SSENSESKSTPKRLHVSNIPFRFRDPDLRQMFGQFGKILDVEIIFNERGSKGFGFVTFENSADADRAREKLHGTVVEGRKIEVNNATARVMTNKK
| Sequence | RBNS enrichment (R) |
| --- | --- |
| GACGGGAAGAGGAGGCCUCUGGACCUGCUGGUCUGCACUGACAGCCUGAAGGGUCUACACCCUCGGCUCACCUAAGUGCCCUGUGCUGGUUGCCAGGCGCAGAGGGGAGG | 0.386 |
| AAUUCACUAGGUAGUUGUUGUUGGUUGACUUGGAGGUAGCUGGGUAAUCAACAGCUUUCACUUUAGAUUCAAUGUGAACCGCAGAGUUACUCAUGACCAAGAGUCUGGCA | 0.574 |
| UUGGCGCCUUUGCAUCUAAUUCAUUGGUUCUAGACGAACUAUUCUGUCAGUUUUUACCACCUAGUAGGCAAUACCUGUUUUGUCUAAUAUUCAAAGUGCAAUUCGCGUCU | 0.492 |
| GUACGUGUAUAUAAUUAUACAUAUAUAUAUAUCUAUUUUGCCCAGGUCUGGGUUUCGUUUUUACCCAGACCCUGGCACUCCCUGUCCACUGUGUGUGUGAUCAUGCUGGG | 0.39 |
| GCCAUUUUAAUGAGAUGAUUUUCUUCAUCUCAUAAUUAAAAUACCUGACUUUAGAGAGAGUAAAAUGUGCCAGGAGCCAUAGGAAUAUCUGUAUGUUGGAUGACUUUAAU | 0.529 |
| UGACUCAGAGCUUCACCCACAAACUCAGGAGAACAUAAGCCUGCUCGUAAAGCUCAAUCCUUCUAUCAUGGCACCAAUCACAAGAACCUUGGACGUUUGACUGACUCUAU | 0.651 |
| ACACAGCCUCAGUACCCAGUCUUUUCCCUAGUUCCUGAAACUUUCCUAGGACCUUAAGAGAAUAGUAGGAGGUCCUAUAGCAUUCCCAGUGUCACUAGAAUUUUGAAGAC | 0.755 |
| UGGCGUCUUUGAAGCCUGGCCUCUUGGCUUCCUUUUGGACUUUGCUUGCUUUCAUUUGAAGUUUGGGUUUGCUUUCUGUGUUCUGUGCGUAUCUUGUUCAGUGUCGUCAA | 1.06 |
| GGAGCUGGAGCAGCAGCAGUUGAUGAGUUCUGUAAGCAGAUGCAGCCGCCUGGGGAGUGAGCCAGCCUGCAUCCCCGGCAGAGGAACUGGUGCCUGCCUUUGUCUGUGAG | 3.61 |
| UGGUCUUGAACUCCUGACCGCAGGUAAUCCACCUGCUUCGGCCUCCCAAAGUGCUGGGAUUACAGGCGCAAGCCACCCAGCCCAGCUUCUUUCCAUUCCUUGAUAGGCGA | 0.186 |
| UUACUUAUUCUAUUCAAGGCAUAGGGCCAAAGCAUUAAGUAUAAUUUAAUCCCAUACAUUCGAGUUAAGUUUAGUGUUGAUGUUCCAUCAUUCUGGACCUCCCAGGAGUU | 0.424 |
| UGUCCCCCCAUUAGGAUUCUAUUACAUAUGCAAUUGUAGGUUCAACCUGUCCCUUUCCCUGCCAGCAAACCCCACCACCCUAAGAGAAAUUUUAGCUUAUAUAUGACGGU | 1.27 |

Study 3
Target: Interferon regulatory factor 5, full length, phosphomimetic (IRF5, Homo sapiens, UniProt Q13568-2, residues 1-514, K96S/S451D/S453D/S456D/S462D)
Method: protein-binding microarray
Form: double-stranded DNA, one strand shown
Medium: in vitro
Concentration: 250 nM
Setting: 60-bp whole probe
With: salmon DNA 0.4 mg/ml
Reference: random background probes
Reading: higher = stronger binding
Constant ends, left off below: GCCTAGCAC … GTCTTGATTCGCTTGACGCTGCTG
| Sequence | log fluorescence [z-score] |
| --- | --- |
| TTAGCTTTCGACTTTCGGTTAGTGCTA | 10.8 |
| TCTTCCTTTACTTTCTTTTTGTGCTAG | 3.11 |
| CACGGTTTCGACTTTCGGGACGTGCTA | 8.41 |
| GACGGTCTGGACTATCGGGACGTGCTA | 0.713 |
| GACGGTTTCGGTATCGGTACGTGCTAG | 10.5 |
| GACGGTATCGCCACTGGGGACGTGCTA | 0.66 |
| TCAAGTTTCCCTCCCTGACTGTGCTAG | 0.959 |
| TTAGAGTTCAGTTTCGATTAGTGCTAG | 9.77 |
| GCCGGTTTCGGGTTTCGGGACGTGCTA | 8.59 |
| GGCGGTATCGGACTGGGGACGTGCTAG | 0.752 |
| TTTTTTTCCTAATTGAACCCGTGCTAG | 1.3 |
| TTAGGACTGCTACTGCATTAGTGCTAG | -0.0974 |
| GGTCTTTCCACTTTCTTTTGGTGCTAG | 2.55 |
| GACGAACTGAGCTTCGAGACGTGCTAG | -0.0323 |
| TCAAATTCCAAGTTCATACTGTGCTAG | 0.533 |
| CTAGGACTGGGTATCGGTTAGTGCTAG | 4 |
| TCATTTTCCATTTTGTGACTGTGCTAG | 1.44 |
| GACGAGCTGAGTATCGAGACGTGCTAG | 1.73 |
| TTAGATCTCAGTTTCGGTTAGTGCTAG | 9.82 |
| TTAGGTCTCCTTCTCTTTTAGTGCTAG | 0.178 |
| ATAGATCTCAGTCTCGATTAGTGCTAG | 0.894 |
| GTAGATCTCAGTCTCGATTAGTGCTAG | 0.561 |
| TTAGAACTGACTTTCGATTAGTGCTAG | 9.79 |
| TTACGTATCGGGACTGGGTTAGTGCTA | 2.54 |
| GACGATATCGGGTCTCGAGACGTGCTA | 1.49 |

Study 4
Target: Transcriptional repressor CTCF (CTCF, Homo sapiens, UniProt P49711, residues 1-727, full length assumed)
Sequence of UniProt P49711 (whole entry, looked up): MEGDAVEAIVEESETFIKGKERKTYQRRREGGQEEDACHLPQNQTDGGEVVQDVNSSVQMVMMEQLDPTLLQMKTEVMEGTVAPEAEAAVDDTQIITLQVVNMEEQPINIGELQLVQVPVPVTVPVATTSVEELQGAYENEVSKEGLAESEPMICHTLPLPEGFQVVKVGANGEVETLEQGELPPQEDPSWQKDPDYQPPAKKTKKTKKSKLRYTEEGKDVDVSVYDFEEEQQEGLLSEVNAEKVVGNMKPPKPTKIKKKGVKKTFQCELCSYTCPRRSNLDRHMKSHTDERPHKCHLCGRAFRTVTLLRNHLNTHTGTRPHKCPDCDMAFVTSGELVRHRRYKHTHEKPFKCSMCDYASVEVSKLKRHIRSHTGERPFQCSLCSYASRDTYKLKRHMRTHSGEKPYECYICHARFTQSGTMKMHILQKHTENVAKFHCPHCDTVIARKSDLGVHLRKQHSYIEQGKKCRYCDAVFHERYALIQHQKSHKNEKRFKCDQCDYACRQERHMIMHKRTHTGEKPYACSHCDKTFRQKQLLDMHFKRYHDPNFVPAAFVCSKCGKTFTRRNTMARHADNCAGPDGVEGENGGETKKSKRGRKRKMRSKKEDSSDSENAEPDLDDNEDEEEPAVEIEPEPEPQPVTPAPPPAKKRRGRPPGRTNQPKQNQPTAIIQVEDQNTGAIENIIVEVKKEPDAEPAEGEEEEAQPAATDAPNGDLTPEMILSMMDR
Method: protein-binding microarray
Form: double-stranded DNA, one strand shown
Medium: in vitro
Concentration: not given
Setting: k-mer, scored over probes, only values ≥0.25
Reading: higher = stronger binding
| Sequence | E-score |
| --- | --- |
| ATTATACA | 0.327 |
| AATACGAA | 0.265 |
| ATATAGCG | 0.274 |
| CACACGCG | 0.306 |
| ATATACAC | 0.294 |
| CACGCGCC | 0.261 |
| AAGTTATG | 0.277 |
| AGAATATG | 0.263 |
| CCACATGC | 0.277 |
| AATTATAC | 0.341 |
| AAATAAGA | 0.263 |
| TGTGAAAA | 0.324 |
| TAACAACA | 0.271 |
| GTATATTA | 0.365 |
| ATTTGCGC | 0.306 |
| ATTATAAG | 0.322 |

Study 5
Target: Histone acetyltransferase KAT6A, winged helix 2, GST fusion (KAT6A, Homo sapiens, UniProt Q92794, residues 85-181)
Method: protein binding microarray
Form: double-stranded DNA, one strand shown
Medium: in vitro
Concentration: not given
Setting: 8-mer, flanks averaged, mean of 2 arrays, mostly near background
Reference: not given
Reading: higher = stronger binding
Residues (chain): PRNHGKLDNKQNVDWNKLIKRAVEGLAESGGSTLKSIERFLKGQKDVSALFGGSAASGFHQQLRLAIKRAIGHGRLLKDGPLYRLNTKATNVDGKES
| Sequence | E-score |
| --- | --- |
| CCTGCCGC | 0.13 |
| CCCGATCG | 0.199 |
| AATCTTAC | -0.0761 |
| AACCGCCC | 0.153 |
| CTCCGGGA | 0.179 |
| ATAAACTC | 0.0906 |
| AGATACAG | -0.00734 |
| CCTTCGCG | 0.111 |
| ACGCAGAT | 0.0297 |
| AGACATTG | -0.106 |
| TCCGAAAA | -0.0422 |
| GCCCAGAC | -0.114 |
| CACTCGAA | 0.0321 |
| GGACACCC | -0.0521 |
| ATGCGGTC | 0.146 |
| CCCCGGGA | 0.0488 |
| CTGTTGAC | -0.0757 |
| CAGCGCGG | 0.105 |
| GGGATCCA | -0.0996 |
| GCAATACA | 0.00364 |
| TATACAAA | 0.138 |
| ACACAGTC | -0.149 |
| CCAAACGA | 0.043 |
| ATGTGTTG | 0.0306 |
| AAGTCCCA | -0.0881 |

Other studies, line by line
| Molecule | target | test | system | setting | how to read | endpoint | value |
| --- | --- | --- | --- | --- | --- | --- | --- |
| PhoQ, residues 284 288 289 292 302 303 SCKMEA | PhoP, residues 12 14 15 18 19 NQCAL (Escherichia coli, UniProt P23836) | Sort-seq, refers to: YFP reporter | E. coli | PhoQ-PhoP variant library, with: 10 µM Mg2+ | reference: high Mg2+ state, higher = stronger signaling | fold induction | 13.4 |

A few entries again (study 1):
| Sequence | log2 enrichment |
| --- | --- |
| ACCAUGCAGGUGGGCAUCUUUGGGAAGUGGGGCAAGGGGGGGAUAGGGAGGGGGGUAACACUUUGGCAACAGGUGGUCCCAGGUCGUUUC | 0.95 |
| UCCUCAAGUCCUGUGCUACACAUCGUAUGUACCGAAUCGGGAGGGGAGGAGGAAAGUAUUAUGUUACGCCGUUCGGAUCUGCACUUCCAG | 0.173 |
| CACAGACAACACGCACCCACACAGACACAGAGGGAACGGGUUGGGAUGGGGACAGGGUGCACAGCAGGGCGGGGUAGGACCCCAGCCCCU | 1.97 |
| UCAAGUCCUGUGCUACACAUCGUAUGUACCGAAUCGGAGGAAAGGUUUUUUUGGAAAGUAUUAUGUUACGCCGUUCGGAUCUGCACUUCC | -0.946 |
| CUGUGCUACACAUCGUAUGUACCGAAUCGGGGAAAAAAAGGGGAAAAAGGGGAAAAAGGGGAAAGUAUUAUGUUACGCCGUUCGGAUCUG | -0.179 |
| CUCAAGUCCUGUGCUACACAUCGUAUGUACCGAAUCGGAGGAAAAAGGUUUGGAAAGUAUUAUGUUACGCCGUUCGGAUCUGCACUUCCA | -0.654 |
| GCAGGAAGUAAAAACAAAUGGAAAUGCUUCGGAUAGUGGCAGAGGUGGGGGUUGCUAAGGAAAGGGUGGGAUGGGAGUGGGUAAAGAGUU | 1.05 |
